Experimental data gathered from unrelated publications.
Protocols differ between the studies behind these lines.
Cell line: Caco-2

Structure (SMILES) | test | system | conditions | scale | endpoint | result
Cc1ccc(CNC(=O)c2ccn3c(-c4ccc(C#N)cc4)cnc3c2)cn1 |  |  |  |  | efflux ratio | 21.3
CCN(Cc1ccc2nc(C)[nH]c(=O)c2c1)c1ccc(C(=O)NC(C(=O)O)C(C)C)cc1 (stereo not shown) |  |  |  | baseline: B-A over A-B | efflux ratio | 3.2
N#Cc1ccc(N2N=C3c4ccc(C(=O)O)cc4CCC3C2C2CCCC2)cc1Cl (stereo not shown) |  |  | 10 µM, 2 h |  | apparent permeability A to B | 6 ×10⁻⁶ cm/s
CCc1nnc(-c2c(OC)cc(-c3cnc4cc(-c5cnn(C)c5)ccn34)cc2OC)o1 |  |  |  |  | Papp | 2.5 ×10⁻⁶ cm/s
CC(C)CC(NC(=O)OCc1ccccc1)C(=O)NC(CC1CCNC1=O)C(=O)C(=O)NC1CC1 (stereo not shown) |  |  | 5 (unit not given) |  | CC50 | > 250 µM
CC(C)C(=O)OC[C@H]1O[C@@](C#N)(n2ccc(N)nc2=O)[C@H](O)[C@@H]1O | cell growth or viability |  |  |  | CC50 | > 100 µM
O=C(O)c1cccc(CP(=O)(O)O)n1 | metabolic activity, Alamar blue |  | 24 h, without 10% FBS |  | EC50 | > 250 µg/mL
Cc1cc(-c2ccc3ccccc3c2)nnc1NCCN1CCN(C)CC1 | Caco-2 permeability | basolateral to apical | 5 µM, 0.5 h, with: valspodar 1.0 µM |  | recovery | 79%
C[C@@H]1O[C@@H](O[C@@H]2[C@@H](O)[C@H](O)[C@@H](CO)O[C@H]2c2c(O)cc(O)c3c(=O)cc(-c4ccc(O)cc4)oc23)[C@H](O)[C@H](O)[C@H]1O | CCK-8 |  | 2.5 µM, 24 h |  | viability | 103%
CCC1CC(c2ccc(C(=O)O)cc2C)=NN1c1ccc(C#N)c(Cl)c1 (stereo not shown) |  |  | 10 µM, 2 h |  | apparent permeability B to A | 12.3 ×10⁻⁶ cm/s

Some of these lines once more:
Structure (SMILES) | test | system | conditions | scale | endpoint | result
CC(C)C(=O)OC[C@H]1O[C@@](C#N)(n2ccc(N)nc2=O)[C@H](O)[C@@H]1O | cell growth or viability |  |  |  | CC50 | > 100 µM
